# Measurements gathered from unrelated publications.
# “And” joins repeats or separate records; there may be more than shown. Numbers after ± are the reported error.
# TDP1: Tyrosyl-DNA phosphodiesterase 1 (TDP1, Homo sapiens, UniProt Q9NUW8)
# UniProt Q9NUW8, sequence (whole entry, looked up): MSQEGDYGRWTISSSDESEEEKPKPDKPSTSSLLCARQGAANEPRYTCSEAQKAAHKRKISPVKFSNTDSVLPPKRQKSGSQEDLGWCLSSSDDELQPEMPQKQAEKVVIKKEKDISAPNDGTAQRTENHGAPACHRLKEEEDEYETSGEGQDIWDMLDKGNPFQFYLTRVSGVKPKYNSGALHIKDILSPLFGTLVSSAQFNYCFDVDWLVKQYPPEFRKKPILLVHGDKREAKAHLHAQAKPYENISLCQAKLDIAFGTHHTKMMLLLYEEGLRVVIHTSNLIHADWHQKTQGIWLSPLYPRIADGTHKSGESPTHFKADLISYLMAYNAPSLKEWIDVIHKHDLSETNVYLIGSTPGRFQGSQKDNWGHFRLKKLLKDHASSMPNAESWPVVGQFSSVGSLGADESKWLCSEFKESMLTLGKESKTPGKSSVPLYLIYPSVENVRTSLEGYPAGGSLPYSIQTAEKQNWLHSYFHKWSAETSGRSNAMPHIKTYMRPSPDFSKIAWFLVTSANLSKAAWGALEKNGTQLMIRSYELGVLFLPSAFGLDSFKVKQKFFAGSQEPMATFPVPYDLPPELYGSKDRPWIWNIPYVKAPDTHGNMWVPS
# UniProt P0A7A9, sequence (whole entry, looked up): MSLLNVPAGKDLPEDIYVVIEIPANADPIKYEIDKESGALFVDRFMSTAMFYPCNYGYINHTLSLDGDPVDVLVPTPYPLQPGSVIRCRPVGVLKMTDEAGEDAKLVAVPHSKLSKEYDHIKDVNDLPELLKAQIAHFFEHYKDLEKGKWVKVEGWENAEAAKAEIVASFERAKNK
SMILES,target or system,test,test system,setting,scale,measurement,result
O=C(O)c1ccc(Nc2c(-c3ccccc3)nc3ccc(CON=Cc4ccc(S(=O)(=O)c5ccc(Cl)cc5)o4)cn23)cc1 (mixture of isomers),TDP1,"enzyme activity, inhibitor",,"100 µM, unpurified compound",,inhibition,32.3%
CS(=O)(=O)c1cc(Cl)cc(-c2cc(Cl)c(Cl)cc2Cl)c1Cl,,,whole cow milk,100 nM nominal,,dose fraction in skim milk,7.16%
CC[C@H](C)[C@@H]1NC(=O)[C@H](Cc2ccc(O)cc2)NC(=O)CCCSC[C@@H](C(=O)N(CC(=O)N[C@@H](CC(C)C)C(=O)NCC(N)=O)Cc2ccc(F)cc2)NC(=O)[C@H](CC(N)=O)NC(=O)[C@H](CCC(N)=O)NC1=O,,,human,"intranasal, 200 µg single dose",,adverse drug reactions,67%
CCCCN1C(=O)c2cccc3c(NCCCN4CCOCC4)ccc(c23)C1=O,,,ethylene glycol,,,emission maximum,541 nm
COc1ccc(Nc2nc(Nc3ccc(OCCOCCOCC[18F])cc3)ncc2Br)cc1,,,"ICR mice, S180 tumour-bearing, liver","intravenous, 370 kBq, 5 min",,tissue uptake,4.14 ± 0.12 %ID/g
O=c1cc(/C=C/c2ccc(N3CCCC3)cc2)oc(/C=C/c2ccc(N3CCCC3)cc2)c1,,,acetonitrile,,,radiative rate constant,3.6e+07 s⁻¹
COc1cc(-c2nc3ccccc3s2)cc(CN2CCNCCN(Cc3cc(-c4nc5ccccc5s4)cc(OC)c3O)CC2)c1O,,UV-vis spectrophotometric titration,aqueous NaCl 0.1 M,"20 µM, 25 °C, pH 3 to 11",,pKa2,5.41
CCC1CNC(CC)CN(C(C(=O)[O-])c2ccc(C(=O)[O-])cc2)C(CC)CN(CC(=O)[O-])C(CC)CN1.[Mn+2] (stereo not drawn),,ICP-MS,"BALB/c mice, intestine","intravenous, 0.05 mmol/kg, 5 min",reference: injected dose,Mn uptake,9.77 ± 3.9%
C/C(N)=N/C(=N\S(=O)(=O)c1ccc(C(F)(F)F)cc1)N1C[C@H](c2ccccc2)C(c2ccc(Cl)cc2)=N1,,,"beagle dog, plasma","oral, 12 mg/kg",,Cmax,1520 ng/mL
CN1Cc2c(NCc3ccc(CN4CCN(c5ccc(C#N)c(F)c5)CC4)cc3)cccc2C(=O)N1C1CCC(=O)NC1=O (stereo not drawn),,,"mouse xenograft, liver",dose not given,,organ weight,642 mg
O=C(Nc1cnccc1-c1ccc([18F])cc1)c1ccnc(NC(=O)C2CC2)c1,,ex vivo gamma counting,"GSK-3β transgenic mice, late-stage, heart","intravenous, 120 min, mean, P-gp inhibitor pretreatment, with: tariquidar 15 mg/kg iv",,SUV,0.45
CC(CCC(=O)NCC(=O)O)C1CCC2C3CCC4CC(OC5OC(C(=O)O)C(O)C(O)C5O)CCC4(C)C3CC(O)C12C (stereo not drawn),,,"human, plasma",endogenous control diurnal,reference: daily mean concentration,relative peak deviation,153 ± 32%
COc1ccc(OC)c(C2=Nn3c(nnc3-c3ccco3)SC2)c1,"ppa (Escherichia coli, UniProt P0A7A9)","enzyme activity, inhibitor",,,,IC50,> 100 µM
CCCCN1C(=O)c2cccc3c(NCCCCCCCCN4CCOCC4)ccc(c23)C1=O,,,toluene,,,fluorescence lifetime,8.6 ns
CCCCNC(CCCC)CSS(=O)(=O)O (stereo not drawn),,,"Swiss Webster mice, Schistosoma mansoni infected",100 mg/kg,reference: vehicle control,body weight decrease,13%
CCCCN1C(=O)c2cccc3c(NCCCCCCN4CCOCC4)ccc(c23)C1=O,,,DMSO,,,emission maximum,535 nm
Cc1nn(-c2nc3c(F)cc(F)cc3s2)c(O)c1C(c1ccc(C(F)(F)F)cc1)c1c(C)nn(-c2nc3c(F)cc(F)cc3s2)c1O,,,ICR mouse,"intravenous, 5 mg/kg, 0.75 h",,plasma concentration,9720 ng/mL and 8680 ng/mL and 7340 ng/mL
CC(C)(O)c1ncc([S@](N)(=O)=NC(=O)Nc2c3c(cc4c2CCC4)CCC3)s1,,measured: vascular disorders,healthy human,"oral, 100 mg, all formulations pooled",,subjects with TEAEs,33%
CN(C)C(=O)c1ccnc(N2Cc3cn(Cc4cccc(C(F)(F)F)c4)nc3C2)n1,,metabolic stability,"rat, liver microsomes",,,half-life,1.5 h
CCCCN1C(=O)c2cccc3c(NCCN4CCOCC4)ccc(c23)C1=O,,,water,pH 6.0,,emission maximum,538 nm
O=C(O)c1ccc(Nc2c(-c3ccc(CON=Cc4cncn4Cc4ccccc4)cc3)nc3cc(-c4ccccc4)ccn23)cc1 (mixture of isomers),TDP1,"enzyme activity, inhibitor",,"100 µM, unpurified compound",,inhibition,54.7%
O=C(O)[C@H]1O[C@@H](N(Cc2ccc(C(F)(F)F)nc2)c2ccc(Cc3c[nH]c4ncc(Cl)cc34)cn2)[C@H](O)[C@@H](O)[C@@H]1O,,,"human, male, plasma","oral, 400 mg of [14C]-pexidartinib single dose, as metabolite",,AUClast,95200 ng·h/mL
O=C(Nc1cnccc1-c1ccc([18F])nc1)c1ccnc(NC(=O)C2CC2)c1,,,"FVB/NJ mice, both sexes, brain","intravenous, 30 min, median, P-gp inhibitor pretreatment, with: tariquidar 15 mg/kg iv",,SUV,0.183
O=C(O)c1cccc(CN2Cc3cccc(n3)CN(Cc3cccc(C(=O)O)n3)Cc3cccc(n3)C2)n1,,"voltammetry, Nernst equation",,Mn(III) complex,,stability constant log β,4.34
COC(=O)C(C)n1nc(Cn2cc3cc(OCC[18F])c(Cl)cc3n2)c2ccccc2c1=O (racemic),,,"rat, plasma",90 min,,parent compound,3%
COCC1CN(C2CCN(c3cc(OC)c(Nc4ncc(Br)c(Nc5ccc6c(c5P(C)(C)=O)OCCO6)n4)cc3C)CC2)C1,,,EGFR-mutant NSCLC patients,"oral, 30 mg once daily",,patients with adverse events,100%
[123I]c1ccc2nc(-c3ccc(-n4ccnn4)nc3)cn2c1,,,"male Wistar rat, lung","intravenous, 4 MBq, 5 min",,tracer uptake,1.03 %ID/g
COc1cccc(OC)c1-c1cc(C(=O)NC2(C(=O)O)C3CC4CC(C3)CC2C4)nn1-c1ccc(C(=O)N(C)CCOCCOCCN(C)C(=O)[C@H](CCCCNC(=O)[C@H](CC(C)C)NC(=O)C2OC2C(=O)O)NC(=O)CN2CCN(CC(=O)[O-])CCN(CC(=O)[O-])CCN(CC(=O)[O-])CC2)cc1C(C)C.[177Lu+3] (mixture of isomers),,,"mouse HT-29 xenograft, large intestine","24 h post injection, biodistribution",,tissue uptake,0.187 %ID/g
Cc1[nH]nc2c1N=C(c1ccccc1Cl)c1cnc(N3CCOCC3)cc1N2,,,"nude mouse, HCC1806 xenograft, plasma","oral, 5 mg/kg once daily",,AUC(0-last),707 ng·h/mL
Cc1ncsc1-c1ccc(CNC(=O)[C@@H]2C[C@@H](O)CN2C(=O)[C@@H](NC(=O)COCC(C)(COCCOCCOCCNC(=O)C[C@@H]2N=C(c3ccc(Cl)cc3)c3c(sc(C)c3C)-n3c(C)nnc32)COCCOCCOCCNC(=O)C[C@@H]2N=C(c3ccc(Cl)cc3)c3c(sc(C)c3C)-n3c(C)nnc32)C(C)(C)C)cc1,,,"C57BL/6 mouse male, plasma","subcutaneous, 5 mg/kg",reference: intravenous 5 mg/kg,bioavailability,88.4%
COc1cccc(OC)c1-c1cc(C(=O)NC2(C(=O)O)C3CC4CC(C3)CC2C4)nn1-c1ccc(C(=O)N(C)CCOCCN(C)C(=O)[C@H](CCCCNC(=O)[C@H](CC(C)C)NC(=O)C2OC2C(=O)O)NC(=O)CN2CCN(CC(=O)[O-])CCN(CC(=O)[O-])CCN(CC(=O)[O-])CC2)cc1C(C)C.[177Lu+3] (mixture of isomers),,,"mouse, HT-29 xenograft, heart",4 h post injection,,tissue uptake,1.1 %ID/g
COc1ccnc(C(=O)N[C@H]2COC(=O)[C@H](Cc3ccccc3)[C@@H](OC(=O)C(C)C)[C@H](C)OC2=O)c1O,,,silt loam soil,"organic carbon 1.0 %, pH 5.5",,Freundlich adsorption coefficient Kf,21.5 mL/g
CN1CCC[C@]1(C)/C=C/S(=O)(=O)NC(=O)Nc1c2c(cc3c1CCC3)CCC2,,measured: nervous system disorders,human,"oral, 12.5 mg twice daily, 14 days, multiple ascending dose",,subjects with adverse event,0%
C=CC(=O)Nc1cc(Nc2nccc(-c3cn(C)c4ccccc34)n2)c(OC)cc1N(C)CCNC,,storage stability,human dried blood spot,"2 h, on ice, MQC level",,recovery,95.8%
COc1cccc(OC)c1-c1cc(C(=O)NC2(C(=O)O)C3CC4CC(C3)CC2C4)nn1-c1ccc(C(=O)NCCNC(=O)[C@H](CCCCNC(=O)[C@H](CC(C)C)NC(=O)C2OC2C(=O)O)NC(=O)CN2CCN(CC(=O)[O-])CCN(CC(=O)[O-])CCN(CC(=O)[O-])CC2)cc1C(C)C.[177Lu+3] (mixture of isomers),,,mouse HT-29 xenograft,"24 h, biodistribution",reference: tumour over spleen,tumour-to-spleen ratio,8.81
O=C(NS(=O)(=O)c1cccs1)c1cc2ccccc2n1Cc1ccc(Br)c2ccccc12,,,"KM mouse, chronic hyperuricaemia model","dose not given, day 4",,body weight,27.8 g and 28.5 g and 28.8 g and 25.6 g and 28.9 g and 27.6 g
C=C(NC(=O)c1csc(-c2nc3c(cc2O)-c2nc(cs2)C(=O)NC(C(C)O)C(=O)NC(=C(C)OC)c2nc(cs2)C(=O)NC2c4nc(cs4)C(=O)NC(COC(=O)c4c5c6c(cccc6n4O)COC(=O)C(OC4CC(C)(O)C(N(C)C)C(C)O4)C2OC5)c2nc-3cs2)n1)C(N)=O (stereo not drawn),,,"Sprague-Dawley rats, both sexes, plasma","intravenous infusion, 6 mg/kg, day 1, multiple dosing",,AUC(0-tau),1770 ± 495 ng·h/mL
C=C[C@]1(C)C[C@@H](OC(=O)CSc2ccc(NC(=O)c3ccco3)cc2)[C@]2(C)[C@H](C)CC[C@]3(CCC(=O)[C@H]32)[C@@H](C)[C@@H]1O,,,"Mycoplasma gallisepticum-infected chickens, plasma","intramuscular, 80 mg/kg, 2 h",,plasma concentration,5220 ng/mL and 4330 ng/mL and 4500 ng/mL and 3880 ng/mL and 7080 ng/mL and 4080 ng/mL and 4340 ng/mL and 4760 ng/mL
CN1CCN(C(=O)c2ccnc(N3Cc4cnn(Cc5ccc(F)cc5)c4C3)n2)CC1,,metabolic stability,"rat, liver microsomes",,,half-life,0.2 h
[2H]C([2H])([2H])NC(=O)c1ccc(N2C(=S)N(c3ccc(C#N)c(C(F)(F)F)c3)C(=O)C2(C)C)cc1F,,,"male human, plasma","oral, 80 mg, single dose, fasted",,Tmax,1.56 h
CCCCN1C(=O)c2cccc3c(NCCCCN4CCOCC4)ccc(c23)C1=O,,,ethyl acetate,,,emission maximum,509 nm
Cc1cc(-c2ccc(C(=O)[C@@H]3CCCC[C@H]3C(=O)Nc3cnn4c3C(=O)NCC4)cc2)[nH]n1,,,"human, urine","oral, 200 mg, 0-48 h",reference: dose,cumulative recovery of radioactivity,5.7%
CCCCN1C(=O)c2cccc3c(NCCCCCN4CCOCC4)ccc(c23)C1=O,,,chloroform,,,emission maximum,502 nm
CC(C)=CCC1=C([O-])C(=O)c2ccccc2C1=O.CC(C)=CCC1=C([O-])C(=O)c2ccccc2C1=O.Cc1cc2cccnc2c2ncccc12.O.[Cu+2],,cyclic voltammetry,"CH2Cl2, Bu4NPF6",0.1 mM,reference: Ag/AgCl sat. KOH,Epc1 cathodic peak potential,0.85 V
CC(C)C[C@H](NC(=O)[C@@H](CCCCNC(=O)[C@@H](Cc1ccccc1)NC(=O)CCCCCCCNC(=O)CN1CCN(CC(=O)O)CCN(CC(=O)O)CCN(CC(=O)O)CC1)NC(=O)[C@H](Cc1ccc(O)cc1)NC(=O)[C@H](CO)NC(=O)[C@H](Cc1c[nH]c2ccccc12)NC(=O)[C@H](Cc1c[nH]cn1)NC(=O)[C@@H]1CCC(=O)N1)C(=O)N[C@@H](CCCNC(=N)N)C(=O)N1CCC[C@H]1C(=O)NCC(N)=O [indium-111 labelled],,,"male athymic nude mice, DU-145 prostate cancer xenograft, urine","intravenous, 0.037 MBq, 2 h",,excreted dose,82.2 ± 7.84%
